Experimental data from different studies.
Every numbered part comes from another study and shows a few of its results, in no order.

Set 1
Target: Histone acetyltransferase KAT6A, winged helix 1, GST fusion (KAT6A, Homo sapiens, UniProt Q92794, residues 1-85)
Technique: protein binding microarray
Form: double-stranded DNA, one strand shown
Sample: in vitro
Tested at: not given
Notes: 8-mer, flanks averaged, mean of 2 arrays, mostly near background
Relative to: not given
Direction: higher = stronger binding
Endpoint: E-score
Construct (chain): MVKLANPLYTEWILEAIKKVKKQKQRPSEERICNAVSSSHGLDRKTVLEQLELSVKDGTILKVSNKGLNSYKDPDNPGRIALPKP
ACCGCGAC: 0.236
AGTGACGG: 0.132
CTCAATCA: -0.114
AGCCATAA: -0.00865
CGCGGATC: 0.373
GTCCGACA: 0.138
GGACTTGA: -0.124
ACTCCCCA: -0.308
AGTAGATC: -0.143
GTGGTTTA: 0.0741
GCATCAGA: -0.178
AAGGGGCC: -0.093
ATTTCGTG: -0.18
CGTGTCAG: -0.00145
CTATGCCA: -0.227
ATTGAGAC: -0.0214
GAGCTGTA: -0.186
CACGATCG: 0.0668
CCCATACG: 0.152
AAACGGTT: -0.0055
GCGTAGAC: 0.256
AAGGTGCA: -0.231
CGGTATTA: 0.197
AGTAACAA: -0.0147
CTATCGGC: 0.274

Set 2
Target: Prothrombin, mature alpha-thrombin (F2, Homo sapiens, UniProt P00734)
Technique: aptamer microarray, sandwich
Form: DNA with 2'F-ANA
Sample: in vitro
Tested at: 200 nM
Notes: whole 15-mer aptamer, many near background
Added: Cy3 exosite-II aptamer, 400 nM
Direction: higher = stronger binding
Endpoint: mean fluorescence intensity
Oligonucleotide: GGTTGGTGTGGTTGG
2'F-ANA at 1 2 3 8 13 14 15: 72.6 a.u.
2'F-ANA at 4 5 7 8 9 11 12 13 14: 46.5 a.u.
2'F-ANA at 2 3 4 7 9 11 12 14 15: 277 a.u.
2'F-ANA at 1 3 4 5 6 7 8 13 14 15: 48.6 a.u.
2'F-ANA at 2 4 5 7 8 10 14: 44.4 a.u.
2'F-ANA at 1 3 5 6 7 8 10 13 14 15: 54.8 a.u.
2'F-ANA at 1 4 7 8 10 11 12 14: 49.4 a.u.
2'F-ANA at 2 3 4 6 7 11 13 15: 326 a.u.
2'F-ANA at 1 3 4 5 7 9: 62.2 a.u.
2'F-ANA at 2 4 7 8 9 11 13 15: 200 a.u.
2'F-ANA at 2 3 4 5 6 7 11 15: 68.3 a.u.
2'F-ANA at 2 9 11 15: 519 a.u.
2'F-ANA at 2 3 7 9: 809 a.u.
2'F-ANA at 2 3 4 6 8 9 10 15: 192 a.u.
2'F-ANA at 3 4 5 6 8 9 12 15: 198 a.u.
2'F-ANA at 1 5 6 9 10 13 15: 66.6 a.u.
2'F-ANA at 2 4 6 7 10 11 12: 136 a.u.
2'F-ANA at 3 8 9 15: 1110 a.u.
2'F-ANA at 2 3 6 7 10 11 12 14 15: 237 a.u.
2'F-ANA at 2 4 7 9 12 13 14 15: 113 a.u.
2'F-ANA at 2 5 7 8 10 11 12 14 15: 45.5 a.u.
2'F-ANA at 1 2 7 9 11 12 13 15: 221 a.u.
2'F-ANA at 3 4 7 10 14 15: 220 a.u.
2'F-ANA at 2 5 8 9 10 11 12 13 14 15: 50.5 a.u.
2'F-ANA at 1 3 8 12 14: 140 a.u.

Set 3
Target: Ras GTPase-activating protein-binding protein 1, C-terminal RGG region (G3BP1, Homo sapiens, UniProt Q13283)
UniProt Q13283, sequence (whole entry, looked up): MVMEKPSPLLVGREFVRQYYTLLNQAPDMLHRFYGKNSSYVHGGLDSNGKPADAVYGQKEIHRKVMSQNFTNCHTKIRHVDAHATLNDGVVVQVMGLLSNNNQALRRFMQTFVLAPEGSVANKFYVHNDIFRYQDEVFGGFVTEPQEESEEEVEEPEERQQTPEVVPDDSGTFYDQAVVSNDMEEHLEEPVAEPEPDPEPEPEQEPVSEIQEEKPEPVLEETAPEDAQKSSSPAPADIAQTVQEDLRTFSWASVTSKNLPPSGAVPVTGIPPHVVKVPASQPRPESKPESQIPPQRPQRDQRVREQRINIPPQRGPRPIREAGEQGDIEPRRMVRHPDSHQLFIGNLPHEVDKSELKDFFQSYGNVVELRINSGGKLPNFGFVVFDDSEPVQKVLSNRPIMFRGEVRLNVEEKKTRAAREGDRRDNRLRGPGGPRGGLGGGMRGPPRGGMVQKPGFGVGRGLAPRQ
Technique: RNA Bind-n-Seq
Form: RNA
Sample: in vitro
Tested at: 1 µM
Notes: whole 134-nt RNA, ends assumed
Added: 150 mM KCl
Relative to: input library
Direction: higher = stronger binding
Endpoint: log2 enrichment
Constant ends, left off below: GGGAGUUCUACAGUCCGACGAUC … UGGAAUUCUCGGGUGUCAAGG
UCAAGUCCUGUGCUACACAUCGUAUGUACCGAAUCGGGAGGGUUUGGGAAAGGGAAAGUAUUAUGUUACGCCGUUCGGAUCUGCACUUCC: 1.78
UCCUGUGCUACACAUCGUAUGUACCGAAUCGGGGAGGGGUUUUUUUGGGGAAAAAGGGGAAAGUAUUAUGUUACGCCGUUCGGAUCUGCA: 1.07
CAAGUCCUGUGCUACACAUCGUAUGUACCGAAUCGGGUUUGGGUUUGGUUUGGGGAAAGUAUUAUGUUACGCCGUUCGGAUCUGCACUUC: 0.0318
CCUGUGCUACACAUCGUAUGUACCGAAUCGGGAAAAAAAGGAAAAAAAGGGGAAAAAAAGGAAAGUAUUAUGUUACGCCGUUCGGAUCUG: -1.71
UGGCCCUGGUGGCAUGCGGGGAGGAAGAGGUGGCCUCAUGGAUCGUGGUGGUCUCGGUGGAAUGUUCAGAGGUGGCCGUGGUGGAGACAG: 2.26
UCCUGUGCUACACAUCGUAUGUACCGAAUCGGUUUUUUGGGGUUUUUUGGGGUUUUUUGGAAAGUAUUAUGUUACGCCGUUCGGAUCUGC: -0.423
CUGUGCUACACAUCGUAUGUACCGAAUCGGGCCCCCCCGGGCCCCCCCGGCCCCCCCGGGGAAAGUAUUAUGUUACGCCGUUCGGAUCUG: -2.22
UGGAAGGAACGAGCCAGGAAGAGGGACUGGAACCAUCUCAGAAGCCAUGCCCCUCAGGCUGGAACUUGCCCUGUCUCCUCGCAGAUGAGG: -1.93
CCUCAAGUCCUGUGCUACACAUCGUAUGUACCGAAUCGGGAGGGAGGGAGGGAAAGUAUUAUGUUACGCCGUUCGGAUCUGCACUUCCAG: 2.67
AAGUCCUGUGCUACACAUCGUAUGUACCGAAUCGGGGAGGGGUUUUUGGGGUGGGGAAAGUAUUAUGUUACGCCGUUCGGAUCUGCACUU: 2.01
CAAGUCCUGUGCUACACAUCGUAUGUACCGAAUCGGAAAGGAAAGGUUUUUUUGGAAAGUAUUAUGUUACGCCGUUCGGAUCUGCACUUC: -1.94
CACAGACAACACGCACCCACACAGACACAGAGGGAAGGGGUUGGCAUGGGGACAGGGUGCACAGCAGGGCGGGGUAGGACCCCAGCCCCU: -0.636
UGGCCCUGGUGGCAUGCGGGGAGGAAGAGGUGGCCUCAUGGAUCGUGGUGGUCCCGGUGGAAUGUUCAGAGGUGGCCGUGGUGGUGACAG: 3.28
UGGCAGGUGGAUUUUGUUUAUUUUUUUAGCUCAUUUCCAGGGGUGGGAAUUUUUUUUUAAUAUGUGUCAUGAAUAAAGUUGUUUUUGAAA: 3.79

Set 4
Target: RING finger protein unkempt homolog, zinc fingers 1-6, GST-SBP tag (UNK, Homo sapiens, UniProt Q9C0B0, residues 30-357)
Technique: RNA Bind-n-Seq
Form: RNA
Sample: in vitro
Tested at: not given
Notes: RNA with constant flanks, human and mouse sites, ends assumed
Relative to: input RNA pool
Direction: higher = stronger binding
Endpoint: bound/input enrichment
Constant ends, left off below: GGGAGUUCUACAGUCCGACGAUC … CAACAGAGGAUUGAGCAUCA
Construct (chain): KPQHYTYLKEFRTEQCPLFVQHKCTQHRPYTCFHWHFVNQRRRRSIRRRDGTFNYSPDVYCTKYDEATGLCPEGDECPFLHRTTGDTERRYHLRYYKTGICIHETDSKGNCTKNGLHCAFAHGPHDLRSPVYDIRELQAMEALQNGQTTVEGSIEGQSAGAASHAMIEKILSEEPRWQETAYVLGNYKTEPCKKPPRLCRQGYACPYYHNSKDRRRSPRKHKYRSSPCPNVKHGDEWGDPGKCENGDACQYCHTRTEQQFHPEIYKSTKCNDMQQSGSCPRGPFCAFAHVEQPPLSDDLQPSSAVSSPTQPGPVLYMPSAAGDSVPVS
UGCUACCAACAGCCUAAGGGGGGGUCAAGGGACUCUCGUCUUUUAUAAGUUUUUGAUUUUUUUUAAACAGGGAUUAACCCCAUGGCCAUUUUUUGUGGUACUCUGGCCUCAAAACUUUAA: 1.04 ratio
AAAAACCUGGAGAAAAUUAGCAGACAGUCUAGUGUGCUCAUGGAUAACAUGAAACACCUAUUAGAGCUAAAUAAAUUAAUAAUGAAAUCACAGCAGGAAUCUUGGGAUUUAGAGGAAAAA: 8.52 ratio
GAACUUCAAGCUUCACAGAUAUUACAGAACAAGAAACAUAAAAAUUCUCAAUUAGAUAAAAAUAGUGAAGUUUAUCAGGAAGUUCAAGCUAUGUUUGAUACACUUGGUAUACCCAAGUCA: 0.713 ratio
GACUCAUGUGUCUUACGUGGAGUUAUGAUUAACAAGGAUGUGACCCAUCCAAGGAUGCGCCGCUAUAUUAAGAAUCCUCGAAUUGUGCUAUUGGAUUCUUCUUUGGAGUACAAGAAAGGA: 0.0702 ratio
UUCUUCCCUAAGAGAACCACCUCCCUGAUUCUUCCCGGCAUCAUAAAGGCAGCUGCUCACGUAUUAUAUGAAACGGAAGUGGAAGUGUCGUUAAUGCCUCCCUGCUUCCAUAAUGAUUGC: 0.392 ratio
AUAUCUUAUUGCCAUAAACUCCAUGUGGUCCACAGAGACUUGAAACCAGAGAAUGUAGUCUUUUUUGAAAAACAAGGUCUUGUGAAGUUGACAGACUUUGGCUUCAGCAACAAAUUUCAG: 0.265 ratio
GGAUAGCGAGCCGCGCUGGCGGCGGCGGUGGCCGCGAUGAUGGAGAUCCAGAUGGACGAGGGCGGCGGCGUGGUGGUGUACCAGGACGACUACUGCUCCGGCUCGGUGAUGUCGGAGCGG: 0.3 ratio
GUUGUACCGAAAGGCAAAGGAGAACAGAUUGCAAGGGAGCAUGGUAUUAGGUUUUUUGAGACUAGUGCAAAAGCAAAUAUAAACAUCGAAAAGGCGUUCCUCACAUUAGCUGAAGACAUC: 1.88 ratio
AUGCCUUUUAAGUAUGGUGUUUGACAUUAACUUGUGAAAAGUCUGUGAUGUUUGUAUAUAUAUAGCAUUUGAAGAUAAACUUUUGUGUUAAAAUCUUUUUAUAACUCCAACUUUUGUAGG: 0.297 ratio
CUUAAAGAGCUUGAAGCUAAAGCCUAUAAACAGAUUGAUGCACGUGGUGGGAACCCUGAGCUAGUAGCCUUAGUAAAACACUUAAGUAAGAUGUUCAAAGAAGAAAAUGAAUAAUGUUAA: 21 ratio
CGGUUUCUUUGCUUUGUGUUCCAUGCAUCUCAUUCUGGCCUCUCCAGAUGGUCUCUUGUGAGAGUCAGGCUGUCCAGGCUGGGAUGCAGAUGGGAACCUCUGACUGACUUGAGGGCAGAA: 0.0976 ratio

Some of these lines once more (set 1):
CGTGTCAG: -0.00145
CTATGCCA: -0.227
ATTGAGAC: -0.0214
GAGCTGTA: -0.186
CACGATCG: 0.0668
CCCATACG: 0.152
AAACGGTT: -0.0055
GCGTAGAC: 0.256
AAGGTGCA: -0.231
CGGTATTA: 0.197
AGTAACAA: -0.0147
CTATCGGC: 0.274
